Results of several laboratories.
Each numbered part is a random draw from the data of one study; scales do not carry over between parts. Values joined by “and” are separate records of one study, mostly repeats; a detail may differ.

Block 1 — technique: universal PBM; molecule type: double-stranded DNA, one strand shown; medium: in vitro; concentration: 600 nM; direction: higher = stronger binding
Target: Sal-like protein 4, full length isoform A (SALL4, Homo sapiens, UniProt Q9UJQ4, residues 1-1053)
UniProt Q9UJQ4, sequence (whole entry, looked up): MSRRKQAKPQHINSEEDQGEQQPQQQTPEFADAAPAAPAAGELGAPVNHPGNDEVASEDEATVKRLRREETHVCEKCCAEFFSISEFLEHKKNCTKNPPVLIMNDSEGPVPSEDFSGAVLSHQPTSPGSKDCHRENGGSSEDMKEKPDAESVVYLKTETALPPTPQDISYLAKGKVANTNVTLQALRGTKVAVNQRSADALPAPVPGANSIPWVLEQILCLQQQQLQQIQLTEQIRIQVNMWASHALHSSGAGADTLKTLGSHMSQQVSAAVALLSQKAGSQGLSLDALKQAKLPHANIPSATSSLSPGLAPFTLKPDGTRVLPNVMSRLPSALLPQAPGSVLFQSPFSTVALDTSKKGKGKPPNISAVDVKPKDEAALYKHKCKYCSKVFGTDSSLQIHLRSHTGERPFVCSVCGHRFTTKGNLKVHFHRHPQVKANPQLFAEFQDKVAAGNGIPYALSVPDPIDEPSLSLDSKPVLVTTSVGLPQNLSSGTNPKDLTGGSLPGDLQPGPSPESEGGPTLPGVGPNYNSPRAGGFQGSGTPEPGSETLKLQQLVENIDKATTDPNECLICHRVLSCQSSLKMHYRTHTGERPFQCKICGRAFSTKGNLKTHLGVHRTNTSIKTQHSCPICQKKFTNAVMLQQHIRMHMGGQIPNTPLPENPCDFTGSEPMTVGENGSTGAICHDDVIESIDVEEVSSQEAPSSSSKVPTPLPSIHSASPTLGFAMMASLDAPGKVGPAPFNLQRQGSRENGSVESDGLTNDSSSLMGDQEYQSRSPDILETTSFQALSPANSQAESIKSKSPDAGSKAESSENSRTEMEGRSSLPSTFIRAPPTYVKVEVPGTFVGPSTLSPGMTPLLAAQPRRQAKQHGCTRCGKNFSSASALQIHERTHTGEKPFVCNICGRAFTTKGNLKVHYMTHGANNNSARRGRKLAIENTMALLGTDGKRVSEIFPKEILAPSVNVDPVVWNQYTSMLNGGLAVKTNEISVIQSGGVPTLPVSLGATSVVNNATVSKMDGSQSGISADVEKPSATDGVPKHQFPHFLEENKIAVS
Setting: 8-mer, flanks averaged, mean of replicates
Strand | E-score
GCCGCCAA | -0.293
ATTATACC | 0.263
AGATGCGA | -0.0114
AAAACATC | 0.201
GACTACGA | -0.0743
ATGCGGTA | 0.0252

Block 2 — technique: protein-binding microarray; molecule type: double-stranded DNA, one strand shown; medium: in vitro; concentration: not given; direction: higher = stronger binding
Target: TATA-box-binding protein 1 (TBP1, Arabidopsis thaliana, UniProt P28147, residues 1-200, full length assumed)
Setting: k-mer, scored over probes, only values ≥0.25
Residues (chain): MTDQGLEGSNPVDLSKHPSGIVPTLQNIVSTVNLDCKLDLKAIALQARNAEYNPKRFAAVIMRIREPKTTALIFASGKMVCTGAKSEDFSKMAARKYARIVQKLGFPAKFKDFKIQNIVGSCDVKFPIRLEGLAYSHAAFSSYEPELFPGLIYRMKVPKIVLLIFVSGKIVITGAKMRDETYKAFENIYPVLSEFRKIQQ
Strand | E-score
ATTATCA | 0.338
AACAGTA | 0.262
ATAACTA | 0.321
AAATACC | 0.299
ATAACTG | 0.264
CTTTATC | 0.294

Block 3 — technique: protein binding microarray; molecule type: double-stranded DNA, one strand shown; medium: in vitro; concentration: not given; baseline: not given; direction: higher = stronger binding
Target: Histone acetyltransferase KAT6A, both winged helices, GST fusion (KAT6A, Homo sapiens, UniProt Q92794, residues 1-181)
Setting: 8-mer, flanks averaged, mean of 2 arrays, mostly near background
Target sequence (chain): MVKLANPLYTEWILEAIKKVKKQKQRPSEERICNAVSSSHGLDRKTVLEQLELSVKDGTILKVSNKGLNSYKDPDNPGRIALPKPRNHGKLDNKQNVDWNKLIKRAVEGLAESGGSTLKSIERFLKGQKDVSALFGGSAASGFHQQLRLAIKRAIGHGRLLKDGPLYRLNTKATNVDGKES
Strand | E-score
GGCAGAAA | 0.0588
CAATTAGA | -0.18
AAGAATCC | -0.066
CGCGACCA | 0.286
AATGGGCC | -0.0735

Other studies, line by line
Substance | target | assay | test system | conditions | how to read | measurement | result
PhoQ, residues 284 288 289 292 302 303 SLANIV | PhoP, residues 12 14 15 18 19 LWHCS (Escherichia coli, UniProt P23836) | Sort-seq, item: YFP reporter | E. coli | PhoQ-PhoP variant library, with: 10 µM Mg2+ | baseline: high Mg2+ state, higher = stronger signaling | fold induction | 5.54 and 13.4

Repeated from above (block 2):
Strand | E-score
AACAGTA | 0.262
ATAACTA | 0.321
